Published values from different studies.
Each line is one published result; not all experiments were run side by side. ± gives the spread as reported.
Pancreatic alpha-amylase: Pancreatic alpha-amylase (Homo sapiens, UniProt P04746)
Sequence of UniProt P04746 (whole entry, looked up): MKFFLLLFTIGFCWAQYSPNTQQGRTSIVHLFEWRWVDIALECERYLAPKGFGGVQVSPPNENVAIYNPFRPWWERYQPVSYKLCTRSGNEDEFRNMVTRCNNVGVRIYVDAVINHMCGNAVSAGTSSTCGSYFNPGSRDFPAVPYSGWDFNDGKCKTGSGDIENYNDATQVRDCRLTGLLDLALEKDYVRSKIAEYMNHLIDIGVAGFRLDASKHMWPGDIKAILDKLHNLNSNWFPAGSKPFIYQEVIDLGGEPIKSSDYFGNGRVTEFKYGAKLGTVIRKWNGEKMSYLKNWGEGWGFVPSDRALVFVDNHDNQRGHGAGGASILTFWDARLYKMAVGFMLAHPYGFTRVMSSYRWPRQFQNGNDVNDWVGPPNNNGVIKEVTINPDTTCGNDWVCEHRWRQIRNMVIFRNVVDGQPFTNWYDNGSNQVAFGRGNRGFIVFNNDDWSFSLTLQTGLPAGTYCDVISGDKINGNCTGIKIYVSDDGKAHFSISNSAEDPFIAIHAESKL
Serotonin N-acetyltransferase: Serotonin N-acetyltransferase (Ovis aries, UniProt Q29495)
Sequence of UniProt Q29495 (whole entry, looked up): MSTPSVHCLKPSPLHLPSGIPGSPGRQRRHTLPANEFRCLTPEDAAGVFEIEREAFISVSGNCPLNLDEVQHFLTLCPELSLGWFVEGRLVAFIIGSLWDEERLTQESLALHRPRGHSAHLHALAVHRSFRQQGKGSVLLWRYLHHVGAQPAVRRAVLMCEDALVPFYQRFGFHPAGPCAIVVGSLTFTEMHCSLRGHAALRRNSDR
Sequence of UniProt Q16816 (whole entry, looked up): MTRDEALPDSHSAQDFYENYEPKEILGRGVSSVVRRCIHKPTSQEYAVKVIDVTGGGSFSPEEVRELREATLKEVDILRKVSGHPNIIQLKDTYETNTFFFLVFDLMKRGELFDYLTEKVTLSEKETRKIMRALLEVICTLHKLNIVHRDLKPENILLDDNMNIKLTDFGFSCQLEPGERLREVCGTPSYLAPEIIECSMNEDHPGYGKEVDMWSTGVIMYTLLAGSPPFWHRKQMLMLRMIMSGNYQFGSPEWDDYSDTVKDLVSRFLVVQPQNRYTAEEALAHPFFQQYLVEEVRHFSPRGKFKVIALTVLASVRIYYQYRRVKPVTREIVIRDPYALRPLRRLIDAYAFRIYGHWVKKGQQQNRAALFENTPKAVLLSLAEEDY
Sequence of UniProt Q99436 (whole entry, looked up): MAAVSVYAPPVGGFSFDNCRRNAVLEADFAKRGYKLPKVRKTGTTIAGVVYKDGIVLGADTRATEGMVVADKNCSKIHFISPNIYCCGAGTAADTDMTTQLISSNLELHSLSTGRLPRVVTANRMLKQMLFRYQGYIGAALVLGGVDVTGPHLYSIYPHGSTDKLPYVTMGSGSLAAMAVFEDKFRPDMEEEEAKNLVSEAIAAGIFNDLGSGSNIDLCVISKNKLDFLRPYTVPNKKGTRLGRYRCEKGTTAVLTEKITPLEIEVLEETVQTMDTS
Sequence of UniProt P53986 (whole entry, looked up): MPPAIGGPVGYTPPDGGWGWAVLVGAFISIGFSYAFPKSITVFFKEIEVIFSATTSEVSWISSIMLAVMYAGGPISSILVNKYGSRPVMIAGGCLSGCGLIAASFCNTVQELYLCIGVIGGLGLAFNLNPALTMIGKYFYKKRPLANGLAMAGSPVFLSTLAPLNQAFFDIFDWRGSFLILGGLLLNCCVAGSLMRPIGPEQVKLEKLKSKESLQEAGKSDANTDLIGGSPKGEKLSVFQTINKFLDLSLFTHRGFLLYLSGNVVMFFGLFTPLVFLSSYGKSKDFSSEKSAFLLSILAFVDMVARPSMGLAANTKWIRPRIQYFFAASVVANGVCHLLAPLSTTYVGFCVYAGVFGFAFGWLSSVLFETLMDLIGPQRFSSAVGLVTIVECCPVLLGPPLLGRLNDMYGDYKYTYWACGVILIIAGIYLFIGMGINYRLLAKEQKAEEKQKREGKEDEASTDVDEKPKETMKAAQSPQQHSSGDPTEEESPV
Sequence of UniProt Q8N884 (whole entry, looked up): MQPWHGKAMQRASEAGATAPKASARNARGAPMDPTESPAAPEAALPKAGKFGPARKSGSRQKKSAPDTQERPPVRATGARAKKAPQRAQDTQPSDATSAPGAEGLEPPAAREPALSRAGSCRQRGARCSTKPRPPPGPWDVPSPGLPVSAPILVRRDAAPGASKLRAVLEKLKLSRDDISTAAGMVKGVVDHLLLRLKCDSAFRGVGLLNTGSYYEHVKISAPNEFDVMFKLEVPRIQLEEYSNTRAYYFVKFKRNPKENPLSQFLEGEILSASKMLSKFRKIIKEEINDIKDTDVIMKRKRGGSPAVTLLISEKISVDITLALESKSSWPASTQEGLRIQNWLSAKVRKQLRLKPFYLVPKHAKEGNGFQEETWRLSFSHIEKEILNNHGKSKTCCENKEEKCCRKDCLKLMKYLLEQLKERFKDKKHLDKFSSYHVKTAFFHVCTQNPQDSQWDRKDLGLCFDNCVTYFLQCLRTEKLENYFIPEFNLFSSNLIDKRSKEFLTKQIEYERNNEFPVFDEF
Sequence of UniProt P40763 (whole entry, looked up): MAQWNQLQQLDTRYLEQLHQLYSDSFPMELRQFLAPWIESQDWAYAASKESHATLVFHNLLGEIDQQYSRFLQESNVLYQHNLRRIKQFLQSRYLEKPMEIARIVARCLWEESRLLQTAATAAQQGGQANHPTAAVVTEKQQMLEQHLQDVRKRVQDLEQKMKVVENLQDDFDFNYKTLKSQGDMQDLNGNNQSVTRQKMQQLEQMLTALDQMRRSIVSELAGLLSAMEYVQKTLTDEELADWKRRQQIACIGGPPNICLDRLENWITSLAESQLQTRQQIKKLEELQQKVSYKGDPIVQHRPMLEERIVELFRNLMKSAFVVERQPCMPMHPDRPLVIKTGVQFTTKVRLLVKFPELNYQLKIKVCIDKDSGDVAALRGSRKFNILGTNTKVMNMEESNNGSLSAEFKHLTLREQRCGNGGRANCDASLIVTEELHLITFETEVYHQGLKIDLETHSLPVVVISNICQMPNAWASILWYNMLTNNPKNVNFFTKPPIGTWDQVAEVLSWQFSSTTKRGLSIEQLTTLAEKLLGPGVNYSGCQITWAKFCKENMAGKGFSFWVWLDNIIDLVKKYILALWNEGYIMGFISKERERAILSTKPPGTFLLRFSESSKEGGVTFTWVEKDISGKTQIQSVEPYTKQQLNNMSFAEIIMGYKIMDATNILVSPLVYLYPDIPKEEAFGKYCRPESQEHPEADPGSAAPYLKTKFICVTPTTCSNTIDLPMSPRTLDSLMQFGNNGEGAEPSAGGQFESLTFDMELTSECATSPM
Sequence of UniProt Q7KZI7 (whole entry, looked up): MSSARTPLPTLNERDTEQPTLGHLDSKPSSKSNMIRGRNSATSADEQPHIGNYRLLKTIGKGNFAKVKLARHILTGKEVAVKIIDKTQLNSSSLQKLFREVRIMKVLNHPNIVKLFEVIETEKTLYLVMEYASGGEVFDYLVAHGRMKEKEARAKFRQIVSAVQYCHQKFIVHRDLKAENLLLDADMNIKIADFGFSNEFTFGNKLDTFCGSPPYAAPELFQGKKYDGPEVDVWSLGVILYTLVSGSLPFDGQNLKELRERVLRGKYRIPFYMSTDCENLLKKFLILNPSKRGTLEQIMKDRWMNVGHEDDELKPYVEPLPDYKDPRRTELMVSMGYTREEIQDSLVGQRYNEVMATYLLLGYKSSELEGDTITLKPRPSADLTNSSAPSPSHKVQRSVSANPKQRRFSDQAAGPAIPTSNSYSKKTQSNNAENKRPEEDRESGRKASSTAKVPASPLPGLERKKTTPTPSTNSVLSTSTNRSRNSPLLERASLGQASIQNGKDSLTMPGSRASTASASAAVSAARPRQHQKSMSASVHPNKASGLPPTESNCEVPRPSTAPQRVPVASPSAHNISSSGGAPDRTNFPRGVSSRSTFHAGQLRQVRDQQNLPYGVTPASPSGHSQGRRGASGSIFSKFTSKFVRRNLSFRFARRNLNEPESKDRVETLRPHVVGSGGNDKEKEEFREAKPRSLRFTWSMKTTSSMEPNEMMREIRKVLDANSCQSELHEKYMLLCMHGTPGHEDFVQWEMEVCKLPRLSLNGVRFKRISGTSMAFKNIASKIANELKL

Structure (SMILES)	tested on	assay	system	setting	how to read	measurement	result
O=C1c2cccc(O)c2C(=O)c2c(O)cc(CO)cc21	HepaRG co-cultured with HK-2	MTT		16.67 µM, 48 h	baseline: untreated control	cell viability	79.2 ± 3.78%
CC(C)n1c(/C=C/C(O)CC(O)CC(=O)O)c(-c2ccc(F)cc2)c2ccccc21 (centres unmarked)	COS-7	WST-8		10 µM, 24 h, 0.1% DMSO, unit not given	baseline: vehicle control	metabolic activity	0.54 ± 0.42
COc1c(O)c(C)cc2c1C(=O)c1c(O)cccc1C2=O	HepaRG co-cultured with HK-2	MTT		66.67 µM, 48 h	baseline: untreated control	cell viability	46.5 ± 3.62%
CN1CCN(c2ccc(Nc3ncc4cc(C#N)c(=O)n(C5CCCC5)c4n3)cc2)CC1	PHKG1 (Homo sapiens, UniProt Q16816)					IC50	1.8 µM
CC(C)Cn1c(=O)n(C)c(=O)c2nc(SCCCCO)c(Cc3cccc4ccccc34)nc21	Monocarboxylate transporter 1 (Slc16a1, Mus musculus, UniProt P53986)	lactate transport	MCF7 expressing Slc16a1	10 min, with: [14C]lactate		IC50	0.669 µM
COc1cc(/C=N/n2c(C)nc3ccc(C)cc3c2=O)ccc1OCc1ccccc1	Pancreatic alpha-amylase	enzyme activity, inhibitor				IC50	550 ± 25.7 µM
Oc1ccc([C@@H]2c3c(O)cc(O)cc3[C@@H]3c4c(cc(O)cc4[C@H]2[C@@H]2c4cc(O)cc5c4[C@@H](c4cc(O)cc(O)c4[C@H]2c2ccc(O)cc2)[C@H](c2ccc(O)cc2)O5)O[C@H]3c2ccc(O)cc2)cc1	Pancreatic alpha-amylase	enzyme activity, inhibitor, HPAEC-PAD		with: maltoheptaose substrate		IC50	> 100 µM
c1ccc(CN(CCN(Cc2ccccn2)Cc2ccccn2)Cc2ccccn2)cc1	Proteasome subunit beta type-7, in 20S proteasome (PSMB7, Homo sapiens, UniProt Q99436)	trypsin-like activity, inhibitor, purified 20S proteasome		pH 7.4, with: 20 µM Bz-VGR-AMC		IC50	> 1000 µM
CN(C)C(=O)CCc1nc(-c2ccccc2)c(-c2ccccc2)o1	COS-7	WST-8		100 µM, 24 h, 0.1% DMSO, unit not given	baseline: control	metabolic activity	0.51 ± 0.45
CC[C@@H]1[C@H](F)C(=O)N[C@@H]1COc1nccc2cc(C(N)=O)c(OC)cc12	MARK2 (Homo sapiens, UniProt Q7KZI7)	ATP-site probe binding, ActivX profiling	THP-1 cell lysate	Lys2 site		IC50	> 5 µM
NCCCCCCN1C(=O)/C(=C2/C(=O)N(Cc3ccc(F)cc3)c3ccccc32)SC1=S	Serotonin N-acetyltransferase	inhibitor, stopped-flow UV		with: serotonin 100 µM, acetyl-CoA 100 µM		IC50	23 µM
Cc1nn(-c2nc3c(F)cc(F)cc3s2)c(O)c1C(c1ccc(C(F)(F)F)cc1)c1c(C)nn(-c2nc3c(F)cc(F)cc3s2)c1O	CGAS (Homo sapiens, UniProt Q8N884)	enzyme activity, inhibitor, pyrophosphatase-coupled		with: ATP and GTP 80 µM		IC50	8.4 ± 0.8 µM
O=C1NC(=S)S/C1=C1\C(=O)Nc2ccccc21	Serotonin N-acetyltransferase	inhibitor, stopped-flow UV		with: serotonin 100 µM, acetyl-CoA 100 µM		IC50	> 60 µM
CC(=O)c1ccc2cc(S(=O)(=O)Nc3ccccc3)ccc2c1	STAT3 (Homo sapiens, UniProt P40763)	tyrosine phosphorylation, inhibitor, ELISA, item: phospho-Tyr705				IC50	5.87 µM
